Measurements pooled from the literature.
Each line is one published result; not all experiments were run side by side. Numbers after ± are the reported error. The star is where a group is joined.
CNR1: Cannabinoid receptor 1 (CNR1, Homo sapiens, UniProt P21554)
Chain of UniProt P21554 (whole entry, looked up): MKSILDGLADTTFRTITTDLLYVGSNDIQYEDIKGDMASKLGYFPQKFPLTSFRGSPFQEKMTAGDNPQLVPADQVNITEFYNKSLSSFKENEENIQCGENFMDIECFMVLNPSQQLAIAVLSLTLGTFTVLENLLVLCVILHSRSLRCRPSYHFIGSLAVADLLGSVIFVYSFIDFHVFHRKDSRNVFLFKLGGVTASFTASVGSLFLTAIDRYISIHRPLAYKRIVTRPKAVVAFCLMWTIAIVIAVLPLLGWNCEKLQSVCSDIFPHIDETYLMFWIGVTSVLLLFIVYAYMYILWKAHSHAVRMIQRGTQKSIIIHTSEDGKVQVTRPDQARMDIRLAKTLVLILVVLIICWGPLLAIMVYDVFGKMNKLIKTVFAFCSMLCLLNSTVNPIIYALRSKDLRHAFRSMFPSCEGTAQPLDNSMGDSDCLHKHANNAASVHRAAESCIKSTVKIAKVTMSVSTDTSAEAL
Ryanodine receptor 1: Ryanodine receptor 1 (Oncorhynchus mykiss, UniProt A0A8C7UX14)
MCL1: Induced myeloid leukemia cell differentiation protein Mcl-1 (MCL1, Homo sapiens, UniProt Q07820)
Chain of UniProt Q07820 (whole entry, looked up): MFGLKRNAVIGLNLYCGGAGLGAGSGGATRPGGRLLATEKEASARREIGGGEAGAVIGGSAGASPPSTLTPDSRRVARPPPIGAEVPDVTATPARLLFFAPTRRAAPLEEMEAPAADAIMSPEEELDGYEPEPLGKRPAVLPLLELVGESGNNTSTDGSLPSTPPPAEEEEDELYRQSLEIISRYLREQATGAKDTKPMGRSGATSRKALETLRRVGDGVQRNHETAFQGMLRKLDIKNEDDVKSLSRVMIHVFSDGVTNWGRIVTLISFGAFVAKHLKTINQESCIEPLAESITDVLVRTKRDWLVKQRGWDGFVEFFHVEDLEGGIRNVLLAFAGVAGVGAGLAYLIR
Chain of UniProt P04798 (whole entry, looked up): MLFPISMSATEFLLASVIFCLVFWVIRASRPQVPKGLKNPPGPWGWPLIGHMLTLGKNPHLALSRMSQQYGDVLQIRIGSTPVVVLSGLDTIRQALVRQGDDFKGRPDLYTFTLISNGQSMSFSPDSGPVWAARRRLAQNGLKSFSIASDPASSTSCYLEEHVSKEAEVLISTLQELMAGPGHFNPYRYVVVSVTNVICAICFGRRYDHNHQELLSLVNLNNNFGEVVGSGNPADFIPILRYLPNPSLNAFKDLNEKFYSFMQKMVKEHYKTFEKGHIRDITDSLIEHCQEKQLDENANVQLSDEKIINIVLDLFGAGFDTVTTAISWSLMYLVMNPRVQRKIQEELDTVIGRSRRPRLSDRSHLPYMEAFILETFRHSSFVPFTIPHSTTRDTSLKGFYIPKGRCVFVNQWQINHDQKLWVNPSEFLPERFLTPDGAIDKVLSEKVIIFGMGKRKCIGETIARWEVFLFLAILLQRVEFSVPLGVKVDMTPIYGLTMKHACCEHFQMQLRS
Chain of UniProt P18825 (whole entry, looked up): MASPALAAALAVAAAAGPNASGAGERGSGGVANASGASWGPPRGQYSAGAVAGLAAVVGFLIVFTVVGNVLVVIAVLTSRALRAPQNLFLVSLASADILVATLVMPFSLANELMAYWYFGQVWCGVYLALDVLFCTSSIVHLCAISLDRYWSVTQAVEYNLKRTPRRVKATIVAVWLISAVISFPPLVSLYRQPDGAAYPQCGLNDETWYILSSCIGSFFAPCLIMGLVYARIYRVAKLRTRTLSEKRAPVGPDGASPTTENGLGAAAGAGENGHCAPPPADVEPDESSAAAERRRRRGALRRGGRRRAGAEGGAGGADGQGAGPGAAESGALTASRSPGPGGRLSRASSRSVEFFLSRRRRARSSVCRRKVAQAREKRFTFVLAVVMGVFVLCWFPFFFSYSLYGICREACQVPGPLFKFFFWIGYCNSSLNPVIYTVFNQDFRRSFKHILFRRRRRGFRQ
Chain of UniProt Q12791 (whole entry, looked up): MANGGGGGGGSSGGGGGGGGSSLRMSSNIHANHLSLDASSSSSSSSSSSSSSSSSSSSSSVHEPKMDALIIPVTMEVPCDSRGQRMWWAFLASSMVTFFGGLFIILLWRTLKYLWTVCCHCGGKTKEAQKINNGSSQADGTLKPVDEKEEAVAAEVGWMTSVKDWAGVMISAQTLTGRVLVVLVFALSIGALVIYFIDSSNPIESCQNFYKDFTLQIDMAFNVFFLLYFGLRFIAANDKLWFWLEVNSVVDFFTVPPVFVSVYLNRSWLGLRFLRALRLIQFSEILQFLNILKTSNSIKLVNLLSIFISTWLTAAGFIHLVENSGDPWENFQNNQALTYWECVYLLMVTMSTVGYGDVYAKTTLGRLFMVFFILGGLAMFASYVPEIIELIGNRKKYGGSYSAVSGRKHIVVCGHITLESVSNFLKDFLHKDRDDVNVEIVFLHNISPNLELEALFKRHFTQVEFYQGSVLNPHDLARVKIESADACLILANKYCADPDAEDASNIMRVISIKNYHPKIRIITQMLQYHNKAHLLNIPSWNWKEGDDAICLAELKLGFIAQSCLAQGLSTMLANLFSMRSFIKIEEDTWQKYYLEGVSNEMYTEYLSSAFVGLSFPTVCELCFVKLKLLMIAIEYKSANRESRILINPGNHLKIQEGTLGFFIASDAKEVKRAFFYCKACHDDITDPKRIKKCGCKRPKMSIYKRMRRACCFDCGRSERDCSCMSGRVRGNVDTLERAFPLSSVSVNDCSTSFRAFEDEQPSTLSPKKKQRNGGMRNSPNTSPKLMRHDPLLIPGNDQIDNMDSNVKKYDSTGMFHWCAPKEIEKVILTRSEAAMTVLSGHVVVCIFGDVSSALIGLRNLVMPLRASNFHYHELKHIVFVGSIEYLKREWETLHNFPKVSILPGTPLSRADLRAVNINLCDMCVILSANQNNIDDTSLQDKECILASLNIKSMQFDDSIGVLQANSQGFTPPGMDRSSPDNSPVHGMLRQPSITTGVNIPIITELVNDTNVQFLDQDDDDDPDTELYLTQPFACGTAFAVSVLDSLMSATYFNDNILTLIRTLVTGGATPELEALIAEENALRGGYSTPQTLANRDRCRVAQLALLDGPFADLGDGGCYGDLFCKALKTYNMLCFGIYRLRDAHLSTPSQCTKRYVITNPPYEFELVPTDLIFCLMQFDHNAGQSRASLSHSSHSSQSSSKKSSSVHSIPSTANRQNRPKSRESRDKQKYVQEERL
Chain of UniProt P15684 (whole entry, looked up): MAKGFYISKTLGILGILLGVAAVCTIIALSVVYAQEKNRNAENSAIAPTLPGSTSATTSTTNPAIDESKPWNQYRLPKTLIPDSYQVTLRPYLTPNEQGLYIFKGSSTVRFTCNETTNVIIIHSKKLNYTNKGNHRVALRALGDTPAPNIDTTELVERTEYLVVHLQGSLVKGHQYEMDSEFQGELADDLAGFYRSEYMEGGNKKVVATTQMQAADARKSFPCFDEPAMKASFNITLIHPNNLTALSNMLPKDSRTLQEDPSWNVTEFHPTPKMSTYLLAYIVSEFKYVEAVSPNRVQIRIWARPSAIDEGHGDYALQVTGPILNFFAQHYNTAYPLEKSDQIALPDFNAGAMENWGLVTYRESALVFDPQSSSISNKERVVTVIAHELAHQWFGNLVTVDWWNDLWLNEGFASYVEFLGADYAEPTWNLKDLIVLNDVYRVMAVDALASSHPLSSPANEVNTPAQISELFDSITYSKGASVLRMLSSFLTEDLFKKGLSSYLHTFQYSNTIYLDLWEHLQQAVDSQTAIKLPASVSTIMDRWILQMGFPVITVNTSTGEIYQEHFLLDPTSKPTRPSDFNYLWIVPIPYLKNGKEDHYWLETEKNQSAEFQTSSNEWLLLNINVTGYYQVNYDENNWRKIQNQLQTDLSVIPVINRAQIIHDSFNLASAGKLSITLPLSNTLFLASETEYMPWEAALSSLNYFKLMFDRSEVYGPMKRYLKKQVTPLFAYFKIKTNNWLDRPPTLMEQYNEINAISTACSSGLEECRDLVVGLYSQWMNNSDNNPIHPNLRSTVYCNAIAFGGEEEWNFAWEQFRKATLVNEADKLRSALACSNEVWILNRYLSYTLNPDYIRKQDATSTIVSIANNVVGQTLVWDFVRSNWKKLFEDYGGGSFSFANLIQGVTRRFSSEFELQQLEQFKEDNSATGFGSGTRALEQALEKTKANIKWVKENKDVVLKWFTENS
Chain of UniProt Q14790 (whole entry, looked up): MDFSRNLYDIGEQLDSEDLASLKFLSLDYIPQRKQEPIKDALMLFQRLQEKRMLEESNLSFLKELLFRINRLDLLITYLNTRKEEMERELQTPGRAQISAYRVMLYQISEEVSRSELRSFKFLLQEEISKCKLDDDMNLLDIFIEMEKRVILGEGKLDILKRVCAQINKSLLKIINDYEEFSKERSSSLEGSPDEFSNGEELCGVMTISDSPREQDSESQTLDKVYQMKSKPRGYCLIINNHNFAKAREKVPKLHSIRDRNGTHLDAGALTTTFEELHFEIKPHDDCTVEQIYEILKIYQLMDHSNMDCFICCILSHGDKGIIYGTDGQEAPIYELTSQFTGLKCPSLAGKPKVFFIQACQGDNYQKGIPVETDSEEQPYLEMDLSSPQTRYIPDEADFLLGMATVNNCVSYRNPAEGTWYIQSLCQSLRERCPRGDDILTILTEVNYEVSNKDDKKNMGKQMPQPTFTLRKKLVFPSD
Chain of UniProt P41143 (whole entry, looked up): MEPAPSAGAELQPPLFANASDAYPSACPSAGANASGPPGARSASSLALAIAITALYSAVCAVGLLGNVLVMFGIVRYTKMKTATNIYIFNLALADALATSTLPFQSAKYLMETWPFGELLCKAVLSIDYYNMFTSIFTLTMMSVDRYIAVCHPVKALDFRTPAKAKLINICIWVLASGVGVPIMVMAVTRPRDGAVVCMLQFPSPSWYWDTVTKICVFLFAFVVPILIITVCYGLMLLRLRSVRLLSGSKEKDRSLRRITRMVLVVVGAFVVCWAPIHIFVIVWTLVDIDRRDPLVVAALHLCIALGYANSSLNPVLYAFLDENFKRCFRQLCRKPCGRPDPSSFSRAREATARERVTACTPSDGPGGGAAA

Substance = isotetrandrine; target = Heat shock protein HSP 90-alpha, C-terminal domain (HSP90AA1, Homo sapiens, UniProt P07900); assay = binding, zonal affinity chromatography; conditions = pH 7.4, 25 °C; measurement = retention time; value = 25.7 min
Substance = C#CCOc1cccc(-c2cc(=O)c3ccccc3o2)c1; target = Cytochrome P450 1A1 (CYP1A1, Homo sapiens, UniProt P04798); assay = enzyme inactivation, mechanism-based inactivator, EROD; conditions = together with: NADPH preincubation; measurement = KI; value = 0.24 µM
Substance = anthraquinone-neomycin; target = poly(dA)•2poly(dT) triplex DNA; assay = isothermal titration calorimetry; conditions = concentration not given, pH 6.8, 5 °C, KCl 150 mM; measurement = binding enthalpy; value = -14.5 ± 0.1 kcal/mol
Substance = CNC(=O)Oc1ccc2c(c1)[C@]1(C)CCN(C)[C@@H]1N2C; target = Cholinesterase (BCHE, Homo sapiens, UniProt P06276); assay = inhibitor, immobilized enzyme reactor, HPLC-UV; system = immobilized recombinant human enzyme; conditions = 30 °C, after near-complete inhibition; measurement = decarbamoylation rate constant k3; value = 0.681 ± 0.01 h⁻¹
Substance = O=C(CCc1ccccc1)NC1CCOC1=O (stereo not drawn); target = rhlR (Pseudomonas aeruginosa, UniProt P54292); assay = reporter gene, agonist; system = Escherichia coli reporter strain; conditions = 100 µM; scale = baseline: BHL 900 µM; measurement = activation; value = 64%
Substance = N=C(N)NCCC[C@@H]1NC(=O)CNC(=O)[C@H](CC(N)=O)NC(=O)[C@@H](N)CSSC[C@@H](C(=O)O)NC1=O; target = Aminopeptidase N (Rattus norvegicus, UniProt P15684); assay = enzyme activity, inhibitor, absorbance; conditions = 50 µM, pH 7.8, with preincubation; measurement = remaining activity; value = ~82%
Substance = O=c1c(I)ccc2n1C[C@@H]1CNC[C@H]2C1; target = α4β2* nAChR, mouse; system = DBA/2J mice, cerebral cortex membranes; conditions = intravenous infusion, 0.2 mg/kg/h, 7 days; scale = baseline: saline; measurement = increase in binding sites; value = 70.3 ± 10.7%
Substance = KQTARKSTGGWW (dodecanoyl-Lys9); target = HDAC8 (Homo sapiens, UniProt Q9BY41); assay = substrate, HPLC; system = peptide; conditions = 1 µM, 1 h, pH 8, 37 °C; measurement = kcat/Km; value = 177 ± 7 M⁻¹ s⁻¹
Substance = NC(=O)N1CCC[C@H](CNC(=O)c2nn(Cc3ccc(F)cc3)c3ccccc23)C1; target = CNR1; assay = calcium mobilization, agonist; system = CHO-K1 expressing Gαq16; scale = baseline: CP55,940 maximum; measurement = Emax; value = 91 ± 4%
Substance = O=c1c2ccccc2[se]n1-c1ccccc1; target = Toxin B (tcdB, Clostridioides difficile, UniProt P18177); system = mouse; conditions = 100 nM, 3 days, together with: toxin B 1.0 µg/kg ip; measurement = survival; value = 100%
Substance = Trp-D-Phe-Asp-Lys-D-Phe-D-Asn-His-Dap; target = GTPase KRas (KRAS, Homo sapiens, UniProt P01116, G12V); assay = fluorescence anisotropy; conditions = concentration not given, together with: FITC-labelled same peptide; measurement = competitive binding inhibition; value = inhibited
Substance = O=[N+]([O-])c1ccc(O[C@H]2O[C@H](CO)[C@H](O)[C@H](O)[C@H]2O)cc1; target = lacY (Escherichia coli, UniProt P02920, I32C/N245C); assay = cytoplasmic cavity closing; system = DDM; conditions = Cu2+ cross-linked; measurement = reverse rate constant; value = 242 ± 54 s⁻¹
Substance = CC(C)[C@H](NC(=O)[C@H](CCC(=O)O)NC(=O)[C@H](CC(=O)O)NC(=O)[C@H](C)NC(=O)[C@H](CC(=O)O)NC(=O)[C@H](CC(N)=O)NC(=O)[C@H](CC(=O)O)NC(=O)[C@H](CO)NC(=O)[C@H](CO)NC(=O)[C@@H](NC(=O)[C@H](CCC(N)=O)NC(=O)[C@H](Cc1ccccc1)NC(=O)[C@H](CC(=O)O)NC(=O)[C@H](CCC(=O)O)NC(=O)[C@H](C)NC(=O)[C@@H](NC(=O)[C@H](CO)NC(=O)[C@H](CCC(=O)O)NC(=O)[C@@H](N)CC(=O)O)C(C)C)C(C)C)C(=O)N[C@@H](C)C(=O)N[C@@H](CCC(=O)O)C(=O)N[C@@H](CCC(=O)O)C(=O)N[C@@H](Cc1ccccc1)C(=O)N[C@@H](CC(=O)O)C(=O)N[C@@H](CO)C(=O)O; target = HTB1/HTA1, H2B residues 30-130 (Saccharomyces cerevisiae, UniProt P02293+P04911); assay = binding, ITC; scale = baseline: wild-type MBD peptide; measurement = affinity decrease; value = 39 fold
Substance = Clc1ccc(-c2ccc(Cl)c(Cl)c2)c(Cl)c1; target = Ryanodine receptor 1; assay = [3H]ryanodine binding; system = rainbow trout, skeletal muscle microsomes; conditions = up to 20 µM; scale = baseline: DMSO; measurement = Emax; value = 130 ± 4.34%
Substance = BIM; target = MCL1; assay = bacterial surface display flow cytometry; conditions = value is labelling concentration; measurement = approximate KD; value = ~0.001 µM
Substance = CC1=C(/C=C/C(C)=C/C=C/C(C)=C/C(=O)O)C(C)(C)CCC1; target = RARB (Homo sapiens, UniProt P10826); assay = reporter gene, agonist, luciferase; system = HEK-293T; conditions = 1 nM; measurement = induction; value = 1.6
Substance = Clc1cc(Cl)c(-c2c(Cl)c(Cl)cc(Cl)c2Cl)cc1Cl; target = Ryanodine receptor 1; assay = [3H]ryanodine binding; system = rainbow trout, skeletal muscle microsomes; conditions = up to 20 µM; scale = baseline: DMSO; measurement = Emax; value = 135 ± 3.27%
Substance = Nc1ncnc2c1ncn2[C@@H]1O[C@@H]2COP(=O)(O)O[C@H]3[C@@H](F)[C@H](n4cnc5c(N)ncnc54)O[C@@H]3COP(=O)(O)O[C@H]2[C@H]1O; target = gdpP, residues 84-659 (Bacillus subtilis, UniProt P37484); assay = substrate, HPLC; conditions = 100 µM, 37 °C, upper limit if undegraded 24 h, together with: enzyme 1 µM; measurement = degradation rate; value = 0.17 ± 0.01 mol/min/mol enzyme
Substance = Nc1ncnc2c1ncn2[C@@H]1O[C@@H]2COP(O)(=S)O[C@H]2[C@H]1O (stereo partly drawn); target = cAMP-dependent protein kinase type II-beta regulatory subunit, holoenzyme with catalytic subunit (Prkar2b, Rattus norvegicus, UniProt P12369, S112A); assay = PKA holoenzyme activation, activator, fluorescence anisotropy; scale = baseline: RIIβ over RIα, higher = RIIβ-selective; measurement = selectivity ratio; value = 0.7
Substance = O=S(=O)(O)Oc1ccc(-c2cccc(Cl)c2)cc1Cl; target = sulfatase, human liver microsomes; assay = substrate; conditions = pH 7.4, 37 °C; measurement = Vmax; value = 18 ± 2.8 nmol/min/mg
Substance = NC(=O)[C@@H]1CCCN1C(=O)C1(NC(=O)c2nn(Cc3ccc(F)cc3)c3ccccc23)CC1; target = CNR1; assay = calcium mobilization, agonist; system = CHO-K1 expressing Gαq16; scale = baseline: CP55,940 maximum; measurement = Emax; value = 89 ± 3%
Substance = CCCCSS(C)(=O)=O; target = Gabrg2/GABRB2/Gabra1 (Rattus norvegicus, UniProt P18508+P47870+P62813, C260A/C282A/C312A/C319A/C341A/L258C); assay = covalent modifier, two-electrode voltage clamp; system = Xenopus laevis oocytes; conditions = 0.5 mM, labelled without GABA, together with: GABA EC10; scale = baseline: before labelling; measurement = GABA current; value = no effect
Substance = COc1ccccc1Nc1ccc2c(c1)C(c1ccccc1F)=NC(C)C(=O)N2 (stereo not drawn); target = ADRA2C (Homo sapiens, UniProt P18825); assay = ligand displacement, radioligand; conditions = 10 µM; measurement = inhibition; value = 62%
Substance = NC(=O)CN1CCC[C@H](CNC(=O)c2nn(Cc3ccc(F)cc3)c3ccccc23)C1; target = CNR1; assay = calcium mobilization, agonist; system = CHO-K1 expressing Gαq16; scale = baseline: CP55,940 maximum; measurement = Emax; value = 110 ± 4%
Substance = Ac-LDEVD-pNA (N-acetyl, C-pNA; pNA = O=[N+]([O-])c1ccc(N*)cc1); target = Caspase-8 (CASP8, Homo sapiens, UniProt Q14790); assay = substrate hydrolysis, substrate, colorimetric; conditions = pH 7.5; measurement = kcat/Km; value = 1330 ± 167 M⁻¹ s⁻¹
Substance = CC[C@H](C)[C@H](NC(=O)[C@H](CCCNC(=N)N)NC(=O)[C@H](CCCNC(=N)N)NC(=O)[C@H](CC(C)C)NC(=O)[C@H](CCC(N)=O)NC(=O)[C@H](CCC(=O)O)NC(=O)[C@H](C)NC(=O)[C@@H](NC(=O)[C@H](CNC(=O)c1cc(S(=O)(=O)F)ccc1OC)NC(C)=O)[C@@H](C)CC)C(=O)NCC(=O)N[C@@H](CC(=O)O)C(=O)N[C@@H](CCCNC(=N)N)C(=O)N[C@@H](Cc1ccccc1)C(N)=O; target = MCL1; assay = cell-free assay, inhibitor; measurement = kinact; value = 0.0157 s⁻¹
Substance = Clc1ccc(Cl)c(-c2cc(Cl)c(Cl)cc2Cl)c1; target = Ryanodine receptor 1; assay = [3H]ryanodine binding; system = rainbow trout, skeletal muscle microsomes; conditions = up to 20 µM; scale = baseline: DMSO; measurement = Emax; value = 194 ± 7.99%
Substance = C[C@H]1CCCC(=O)CCC/C=C/c2cc(O)cc(O)c2C(=O)O1; target = zhd101 (Clonostachys rosea, UniProt Q8NKB0, D57K); assay = substrate, HPLC; conditions = 10 min, pH 5.5, 37 °C, 1% acetonitrile; measurement = Km; value = 11.2 ± 0.98 mM
Substance = COc1ccccc1Oc1ccc(C(=O)N[C@H](CN2CCN(c3cccc(O)c3)[C@@H](C)C2)C(C)C)cc1; target = OPRD1 (Homo sapiens, UniProt P41143); assay = antagonist; system = CHO; conditions = together with: DPDPE; measurement = Ke; value = 869 ± 200 nM
Substance = CCOc1ccccc1S(=O)(=O)N1CC(c2nc(-c3ccc(F)cc3Cl)no2)C1; target = Calcium-activated potassium channel subunit alpha-1, with beta-3 subunit (KCNMA1, Homo sapiens, UniProt Q12791); system = HEK293; conditions = 30 µM; measurement = activity; value = inactive
